Measurements gathered from unrelated publications.
Organism: SARS-CoV-2

Cc1ccc(N2CC(N3CCC(C)(O)CC3)C2)cc1C(=O)NC1(c2ccc3c4c(cccc24)C(=O)N3C)CC1  inhibition (viral replication; Vero C1008, wild type; 0.01715 µM): 30%
CC(C)(C)NC(=O)[C@@H](c1cccnc1)N(C(=O)c1ccco1)c1ccc(C(C)(C)C)cc1  Ct value (RT-qPCR, measured: viral RNA; Vero; 10 µM; higher means less virus): 25.1 cycles
Cc1ccc(N2CCN(C)CC2)cc1C(=O)NC1(c2ccc3c4c(cccc24)CC3)CC1  inhibition (viral replication; Vero C1008, wild type; 12.5 µM): 100%
Cc1oc2nc1C(=O)N[C@](C)(C(=O)NCCc1ccccc1)c1nc(c(C)o1)C(=O)N[C@](C)(C(=O)NCCc1ccccc1)c1nc(c(C)o1)C(=O)N[C@]2(C)C(=O)NCCc1ccccc1  inhibition (virucidal activity; Vero E6, NRC-03-nhCoV; 20 µM): ≤ 90%
CCCC/C=C/C(=O)N[C@@H](Cc1csc2ccccc12)C(=O)N[C@H]1COC(=O)[C@@H]2C[C@@H](C)CN2C(=O)[C@H](C)NC(=O)[C@@H]2CCCCN2C(=O)[C@@H]2CCCN2C1=O  viral RNA release reduction (SB2; 10 µM): 90%
Cc1oc2nc1C(=O)N[C@](C)(C(=O)O)c1nc(c(C)o1)C(=O)N[C@](C)(C(=O)O)c1nc(c(C)o1)C(=O)N[C@]2(C)C(=O)O  inhibition (virucidal activity; Vero E6, NRC-03-nhCoV; 2.5 µM): 6%
Cc1ccc(N2CC(N3CCC(C)(O)CC3)C2)cc1C(=O)NC1(c2ccc3c4c(cccc24)CC3)CC1  inhibition (viral replication; Vero C1008, wild type; 0.1543 µM): 10%
Cc1oc2nc1C(=O)N[C@](C)(C(=O)OC(C)C)c1nc(c(C)o1)C(=O)N[C@](C)(C(=O)OC(C)C)c1nc(c(C)o1)C(=O)N[C@]2(C)C(=O)OC(C)C  inhibition (viral replication; Vero E6, NRC-03-nhCoV; 2.5 µM): 0%
CC(C)CC(C(=O)N1CC2(CC1C#N)C(=O)Nc1ccccc12)N(C)C(=O)c1cc2c(F)cc(F)c(F)c2[nH]1 (stereo not drawn)  inhibition (viral replication, infectious virus; Vero E6; 0.3333 µM): 103%

For quick reference, copied from above:
CC(C)(C)NC(=O)[C@@H](c1cccnc1)N(C(=O)c1ccco1)c1ccc(C(C)(C)C)cc1  Ct value (RT-qPCR, measured: viral RNA; Vero; 10 µM; higher means less virus): 25.1 cycles
